# Published values gathered from unrelated publications.
# Protocols differ between the studies behind these lines.
# Read-out: cell growth or viability
Structure (SMILES),cell line,assay,conditions,quantity,value
Cc1n[nH]c2ccc3nc(-c4ccc(C(=O)N(C)CCN(C)C)cc4)c4c(c3c12)CCCCC4,K562,resazurin,72 h,GI50,9.8 µM
CCCn1cnc2ccc(-c3ccc(N4CCCCC4=O)nc3)cc2c1=O,HCC827,CCK-8,72 h,IC50,> 10 µM
O=C(Nc1ccc(Oc2nnc(-c3ccc(Cl)cc3)c3ccccc23)cc1)c1cccc([N+](=O)[O-])c1,HepG2,MTT,1.25 µM,cell death,48.2%
c1cncc(-c2cccc(Oc3nccc(NC4CCCCC4)n3)c2)c1,BJ,ATP luminescence,72 h,EC50,> 14 µM
COc1ccc2/c(=N/c3ccccc3NC(=O)[C@@H](N)C(C)(C)C)cc(-c3ccc4c(c3)OCO4)oc2c1,HCT-116,CCK-8,1 µM,inhibition,7.26%
CCCC(C)C(=O)Nc1ccc(-c2ccc3ncn(CCC)c(=O)c3c2)cn1 (stereo not drawn),HCC827,CCK-8,72 h,IC50,> 10 µM
c1ccc(N2CCCC(Nc3nccc(NC4CCCCC4)n3)C2)cc1 (stereo not drawn),BJ,ATP luminescence,72 h,EC50,> 11 µM
S=C(Nc1ccccc1)Nc1ccc(Oc2nnc(-c3ccc(Cl)cc3)c3ccccc23)cc1,HepG2,MTT,1.25 µM,cell death,42.9%
C=C(F)C(=O)N1CCN(c2nc(OC[C@@H]3CCCN3C)nc3c2CCN(c2cccc4cccc(Cl)c24)C3)C[C@@H]1CC#N,ASPC1,ATP luminescence,3D culture,IC50,> 1 µM
CC(C)(C)c1cc(NC(=O)Nc2ccc(-c3cn4c(n3)sc3cc(OCCN5CCOCC5)ccc34)cc2)no1,U-937,,72 h,GI50,> 10 µM
CC(=O)Nc1ccc(Oc2nnc(-c3ccc(Cl)cc3)c3ccccc23)cc1,HepG2,MTT,0.312 µM,cell death,64.8%
CCCCn1cnc2ccc(-c3ccc(NC(C)=O)nc3)cc2c1=O,HCC827,CCK-8,72 h,IC50,> 10 µM
c1ccc(-c2ccc(Nc3nccc(NC4CCCCC4)n3)cc2)nc1,BJ,ATP luminescence,72 h,EC50,9.18 µM
O=C(Nc1ccccc1/N=c1\cc(-c2ccc3c(c2)OCCO3)oc2cc(F)ccc12)N1CCOCC1,HCT-116,CCK-8,1 µM,inhibition,14.3%
Cc1n[nH]c2ccc3nc(-c4ccc(C(=O)N(C)CCN(C)C)nc4)c4c(c3c12)CCCCC4,K562,resazurin,72 h,GI50,> 10 µM
O=C(Nc1ccccc1)Nc1ccc(Oc2nnc(-c3ccc(Cl)cc3)c3ccccc23)cc1,HepG2,MTT,10 µM,cell death,95.2%
CCCC(=O)Nc1ccc(-c2ccc3ncn(Cc4ccc(C)cc4)c(=O)c3c2)cn1,NCI-H1975,CCK-8,72 h,IC50,8.77 µM
CCC(=CCc1c(O)cc2c(c1O)C(=O)C[C@@H](c1ccc(O)cc1)O2)CC,HeLa,MTT,"50 µM, 48 h",inhibition,89.1%
CCCCC(=O)Nc1ccc(-c2ccc3ncn(C4CC4)c(=O)c3c2)cn1,NCI-H1975,CCK-8,72 h,IC50,3.23 µM
COc1ccc(NC(=O)c2c(Nc3ccccc3)sc(C(=O)NN=Cc3ccc(C)cc3)c2NC(C)=O)cc1,HepG2,SRB,"10 nM, 48 h",viability,96.3%
CC(C)Nc1ccnc(Nc2ccc(C(N)=O)cc2)n1,BJ,ATP luminescence,72 h,EC50,> 12 µM
COCCNC(=O)c1ccc(-c2nc3ccc4[nH]ncc4c3c3c2CCCC3)cc1,K562,resazurin,72 h,GI50,6.3 µM
C[C@H](N)C(=O)Nc1ccccc1/N=c1\cc(-c2ccc3c(c2)OCCO3)oc2c([N+](=O)[O-])cccc12,MOLM-13,CCK-8,1 µM,inhibition,-0.07%
CCCCC(=O)Nc1cc(C)c(-c2ccc3ncn(CCC)c(=O)c3c2)cn1,NCI-H1975,CCK-8,72 h,IC50,6.79 µM
NC(=O)C1CCCN1C(=O)Nc1ccccc1/N=c1\cc(-c2ccc3c(c2)OCCO3)oc2cc(F)ccc12 (stereo not drawn),NCI-H1975,CCK-8,1 µM,inhibition,3.15%
CCCNc1ccnc(Nc2cccc(-c3cccnc3)c2)n1,BJ,ATP luminescence,72 h,EC50,> 19 µM
CC(=NNC(=O)c1ccccc1Cl)c1ccc(Nc2nnc(-c3ccc(Cl)cc3)c3ccccc23)cc1,HepG2,MTT,1.25 µM,cell death,94.5%
c1cncc(-c2cccc(Nc3nccc(NC4CC4)n3)c2)c1,BJ,ATP luminescence,72 h,EC50,> 19 µM
COc1ccc(NC(=O)c2c(Nc3ccccc3)sc(C(=O)NN=Cc3ccccc3)c2NC(C)=O)cc1,HCT-116,SRB,"0.1 µM, 48 h",viability,87.1%
CC(=NNC(N)=S)c1ccc(Nc2nnc(-c3ccc(Cl)cc3)c3ccccc23)cc1,HepG2,MTT,5 µM,cell death,92.6%
CCCn1cnc2ccc(-c3ccc(N4CCCC4=O)nc3)cc2c1=O,NCI-H1975,CCK-8,72 h,IC50,> 10 µM
CC[C@H](C)Nc1ccnc(Nc2cccc(-c3cccnc3)c2)n1,BJ,ATP luminescence,72 h,EC50,> 6 µM
O=C(Nc1ccc(Oc2nnc(-c3ccc(Cl)cc3)c3ccccc23)cc1)c1ccccc1,MCF7,MTT,0.156 µM,cell death,77.6%
COCCC(=O)Nc1ccccc1/N=c1\cc(-c2ccc3nc(N)oc3c2)oc2ccccc12,MDA-MB-231,CCK-8,1 µM,inhibition,-8.52%
c1cc(Nc2nccc(NC3CCCCC3)n2)cc(-n2ccnc2)c1,BJ,ATP luminescence,72 h,EC50,> 8 µM
CS(=O)(=O)NCCC(=O)Nc1ccccc1/N=c1\cc(-c2ccc3nc(N)oc3c2)oc2ccccc12,NCI-H1975,CCK-8,1 µM,inhibition,-3.35%
CC(=NNC(=O)c1ccc(N)cc1)c1ccc(Nc2nnc(-c3ccc(Cl)cc3)c3ccccc23)cc1,HepG2,MTT,5 µM,cell death,84.2%
CCCCn1cnc2ccc(-c3ccc(NC(=O)C4CCCC4)nc3)cc2c1=O,NCI-H1975,CCK-8,72 h,IC50,3.71 µM
CCNc1nc2ccc(-c3c/c(=N\c4ccccc4NC(=O)CCN)c4ccccc4o3)cc2o1,NCI-H1975,CCK-8,1 µM,inhibition,23%

# A few entries again:
Structure (SMILES),cell line,assay,conditions,quantity,value
COCCC(=O)Nc1ccccc1/N=c1\cc(-c2ccc3nc(N)oc3c2)oc2ccccc12,MDA-MB-231,CCK-8,1 µM,inhibition,-8.52%
CC(C)(C)c1cc(NC(=O)Nc2ccc(-c3cn4c(n3)sc3cc(OCCN5CCOCC5)ccc34)cc2)no1,U-937,,72 h,GI50,> 10 µM
c1cncc(-c2cccc(Nc3nccc(NC4CC4)n3)c2)c1,BJ,ATP luminescence,72 h,EC50,> 19 µM
O=C(Nc1ccc(Oc2nnc(-c3ccc(Cl)cc3)c3ccccc23)cc1)c1ccccc1,MCF7,MTT,0.156 µM,cell death,77.6%
